Published values pooled from the literature.
Lines come from different studies, so protocols differ. “And” joins repeats or separate records; there may be more than shown. ± gives the spread as reported.

Substance	tested on	assay	system	setting	how to read	endpoint	result
O=C(CSc1nc2ccccc2c(=O)[nH]1)NNC(=O)c1ccccc1Br	SARS-CoV-2	viral cytopathic effect	Vero E6, NRC-03-nhCoV			IC50	21.4 µM
Cc1cccc(NC(=O)C[S+]([O-])c2nc(-c3ccccc3)cn2-c2ccc(Cl)cc2)c1C (racemic)	SARS-CoV-2	viral replication	Vero C1008, Delta B.1.617.2			IC50	4.49 µM
Cc1cccc(Nc2nc(Nc3cccc(C)c3)nc(N3CCOCC3)n2)c1	SARS-CoV-2	viral replication	Vero C1008, USA_WA1/2020	72 h		IC50	0.8 µM
C#C[C@]1(O)CC[C@H]2[C@@H]3CCc4cc(OC)ccc4[C@H]3CC[C@@]21C	SARS-CoV-2	viral replication	Huh-7			IC50	> 2 µM
O=C(CSc1nc2ccccc2c(=O)[nH]1)NNC(=O)c1ccccc1	SARS-CoV-2	viral cytopathic effect	Vero E6, NRC-03-nhCoV			IC50	318 µM
CCC[C@H](NC(=O)[C@@H]1[C@H]2CCC[C@H]2CN1C(=O)[C@@H](NC(=O)[C@@H](NC(=O)c1cnccn1)C1CCCCC1)C(C)(C)C)C(=O)C(=O)NC1CC1	SARS-CoV-2	viral replication, nucleoprotein immunofluorescence	Vero E6			IC50	> 50 µM
O=c1c2ccccc2[se]n1-c1ccccc1	SARS-CoV-2					IC50	24.6 µM
CNC(=O)[C@@H](NC(=O)[C@H](CC(C)C)[C@H](O)C(=O)NO)C(C)(C)C	Daboia russelii venom proteases (SVMP)	protease activity, inhibitor	MP population	100 µM, added: azocasein substrate	reference: venom alone	remaining activity	0%
polymyxin B	SARS-CoV-2	viral replication	Vero	24 h		IC50	> 0.8 µg/mL
O=C(CSc1nc2c(c(=O)[nH]1)CCCC2)NNC(=O)c1ccccc1	SARS-CoV-2	viral cytopathic effect	Vero E6, NRC-03-nhCoV			IC50	140 µM
Cc1ccc(-c2cccc(CN3CCCC(NC(=O)c4c(C)noc4C)C3)c2)cc1Cl (centres unmarked)	SARS-CoV-2	cytopathic effect	USA_WA1/2020	round 1, 5-point		efficacy	101%
O=C(CSc1nc2c(c(=O)[nH]1)CCCC2)Nc1ccccc1C(=O)O	SARS-CoV-2	viral cytopathic effect	Vero E6, NRC-03-nhCoV			IC50	174 µM
CC1=C(C(=O)OC2CCCCC2)C(c2ccc([N+](=O)[O-])cc2)C2=C(CC(C)(C)CC2=O)N1 (centres unmarked)	SARS-CoV-2	viral cytopathic effect	Vero E6	3 days		IC50	0.0151 µM
CCN(CC)C(=O)C1(c2ccccc2)CC1CN (centres unmarked)	SARS-CoV-2	viral replication	Vero E6	inactive set pIC50 4		IC50	> 10 µM
CC[C@H](C)[C@H](NC(=O)[C@H](CC(C)C)NC(=O)[C@H](Cc1c[nH]c2ccccc12)NC(=O)[C@H](CCC(N)=O)NC(=O)[C@@H](NC(=O)[C@H](Cc1ccccc1)NC(=O)[C@H](C)NC(=O)[C@H](CCCCNC(=O)COCCOCCNC(=O)COCCOCCNC(=O)CC[C@H](NC(=O)CCCCCCCCCCCCCCCCCCC(=O)O)C(=O)O)NC(=O)[C@H](CCC(N)=O)NC(=O)[C@H](C)NC(=O)[C@@H](NC(=O)[C@H](CCCCN)NC(=O)[C@H](CC(=O)O)NC(=O)[C@H](CC(C)C)NC(=O)C(C)(C)NC(=O)[C@@H](NC(=O)[C@H](CO)NC(=O)[C@H](Cc1ccc(O)cc1)NC(=O)[C@H](CC(=O)O)NC(=O)[C@H](CO)NC(=O)[C@@H](NC(=O)[C@H](Cc1ccccc1)NC(=O)[C@@H](NC(=O)CNC(=O)[C@H](CCC(=O)O)NC(=O)C(C)(C)NC(=O)[C@@H](N)Cc1ccc(O)cc1)[C@@H](C)O)[C@@H](C)O)[C@@H](C)CC)[C@@H](C)CC)C(C)C)C(=O)N[C@@H](C)C(=O)NCC(=O)NCC(=O)N1CCC[C@H]1C(=O)N[C@@H](CO)C(=O)N[C@@H](CO)C(=O)NCC(=O)N[C@@H](C)C(=O)N1CCC[C@H]1C(=O)N1CCC[C@H]1C(=O)N1CCC[C@H]1C(=O)N[C@@H](CO)C(N)=O		item: treatment-emergent application site reaction	healthy subjects	4.5 mg, multiple ascending dose		subjects with adverse event	0%
COc1cc2nc(N(C)CCCNC(=O)C3CCCO3)nc(N)c2cc1OC (centres unmarked)	SARS-CoV-2	viral replication	Huh-7			IC50	> 2 µM
CCCC[C@H](NC(=O)[C@@H]1[C@@H]2[C@H](CN1C(=O)[C@@H](NC(=O)NC1(CS(=O)(=O)C(C)(C)C)CCCCC1)C(C)(C)C)C2(C)C)C(=O)C(=O)NC1CC1	SARS-CoV-2	viral replication, nucleoprotein immunofluorescence	Vero E6			IC50	7.7 µM
Nc1ncnc2c([C@@H]3N[C@H](CO)[C@@H](O)[C@H]3O)c[nH]c12	Middle East respiratory syndrome-related coronavirus	viral replication	Vero C1008, Jordan N3	0.8 µM		inhibition	6%
COc1ccc(CN2CCN(Cc3ccccc3)CC2)cc1	SARS-CoV-2	viral replication, RT-qPCR	A549 expressing ACE2			IC50	> 10 µM
CO/N=C(\C(=O)N[C@@H]1C(=O)N2C(C(=O)O)=C(COC(C)=O)CS[C@H]12)c1csc(N)n1	SARS-CoV-2	viral replication	Huh-7			IC50	> 2 µM
CN(C)CC[C@@H](c1ccc(Cl)cc1)c1ccccn1	SARS-CoV-2	viral replication	A549 expressing ACE2	inactive set pIC50 4		IC50	> 10 µM
CCCCCCCCCCC(C)(C)C(=O)Nc1c(OC)cc(OC)cc1OC	SARS-CoV-2	viral cytopathic effect	Vero E6	3 days		IC50	0.3 µM

Substance	tested on	assay	system	setting	how to read	endpoint	result
O=C(Nc1ccc(OC(F)(F)F)cc1)c1sccc1NCc1ccnc2ccccc12	SARS-CoV-2	viral replication				IC50	2.4 µM
Cc1ccc(N)cc1C(=O)N[C@H](C)c1cccc2ccccc12	SARS-CoV-2	viral replication	USA/WA1/2020	48 h		IC50	> 20 µM
OCCOc1ccc(/C(=C(/CCCl)c2ccccc2)c2ccccc2)cc1	SARS-CoV-2	viral replication	Huh-7			IC50	> 2 µM
Cn1cnc(Cn2c(=O)[nH]/c(=N\c3cc4cn(C)nc4cc3Cl)n(Cc3cc(F)c(F)cc3F)c2=O)n1			human, all renal function groups	oral, 375 mg, hypertriglyceridaemia TEAE, Mild severity		patients with adverse event	0%
Cn1cnc(Cn2c(=O)[nH]/c(=N\c3cc4cn(C)nc4cc3Cl)n(Cc3cc(F)c(F)cc3F)c2=O)n1	SARS-CoV-2	viral replication	Vero C1008, XBB.1			IC50	0.0949 ± 0.0094 µM
O=C(CSc1nc2ccccc2c(=O)[nH]1)NNC(=O)c1ccc(Cl)cc1	SARS-CoV-2	viral cytopathic effect	Vero E6, NRC-03-nhCoV			IC50	74.3 µM
O=C(CN1CCC(CN2Cc3ccccc3C2=O)CC1)c1ccc(F)cc1	SARS-CoV-2	viral replication	A549 expressing ACE2	inactive set pIC50 4		IC50	> 10 µM
O=C(CSc1nc2c(c(=O)[nH]1)CCCC2)NNC(=O)c1ccc([N+](=O)[O-])cc1	SARS-CoV-2	viral cytopathic effect	Vero E6, NRC-03-nhCoV			IC50	38.5 µM
Cc1c(-c2ccccc2)oc2c(C(=O)OCCN3CCCCC3)cccc2c1=O	SARS-CoV-2	viral replication, RT-qPCR	A549 expressing ACE2			IC50	> 10 µM
Cc1ncc(CO)c(CO)c1O	SARS-CoV-2	viral replication	Huh-7			IC50	> 2 µM
O=C(CSc1nc2ccccc2c(=O)[nH]1)Nc1ccc(C(=O)O)cc1	SARS-CoV-2	viral cytopathic effect	Vero E6, NRC-03-nhCoV			IC50	79.2 µM
CN1C(=O)OC(C)(C)C1=O	SARS-CoV-2	viral replication	Huh-7			IC50	> 2 µM
Cc1nccn1CC1CCc2c(c3ccccc3n2C)C1=O (centres unmarked)	SARS-CoV-2	viral replication	A549 expressing ACE2	inactive set pIC50 4		IC50	> 10 µM
C=C[C@@H]1C[C@]1(NC(=O)[C@@H]1C[C@@H](Oc2ncc(OC)c3ccc(Cl)cc23)CN1C(=O)[C@@H](NC(=O)OC(C)(C)C)C(C)(C)C)C(=O)NS(=O)(=O)C1CC1	SARS-CoV-2	viral replication, nucleoprotein immunofluorescence	Vero E6			IC50	15 µM
CCOCOC[C@H](C[C@H](C)C(=O)NO)NC(=O)c1ccc(Oc2ccccc2)cc1	SARS-CoV-2	cell-cell fusion	HeLa-ACE2, Delta spike			IC50	> 10 µM
CCN(CC)CCNC(=O)c1ccc(N)cc1	SARS-CoV-2	viral replication	Huh-7			IC50	> 2 µM
CCN(CC)CCCNC(=O)CSc1c2c(nc3cc(Cl)ccc13)CCCC2	SARS-CoV-2	cytopathic effect	USA_WA1/2020	round 2, 5-point		maximum response	84%
O=C(CSc1nc2c(c(=O)[nH]1)CCCC2)NNC(=O)c1ccccc1Br	SARS-CoV-2	viral cytopathic effect	Vero E6, NRC-03-nhCoV			IC50	93.4 µM
CN1CC[C@@]23CCCC[C@@H]2[C@@H]1Cc1ccc(O)cc13	SARS-CoV-2	viral replication, anti-nucleoprotein immunostaining	Vero E6			IC50	> 10 µM
CCOc1ccc2cc(C(=O)Nc3nc4ccccc4[nH]3)[nH]c2c1	SARS-CoV-2	cell fusion	Vero E6			IC50	0.71 µM and < 1 µM
Cc1nccn1CC1CCc2c(c3ccccc3n2C)C1=O (centres unmarked)	SARS-CoV-2	viral replication	Huh-7			IC50	> 2 µM
COc1cc2c(cc1OC)CN(CCc1ccc(NC(=O)c3cccc4c(=O)c5cccc(OC)c5[nH]c34)cc1)CC2	SARS-CoV-2	viral replication, anti-nucleoprotein immunostaining	Vero E6			IC50	0.617 µM
